Assay results pooled from the literature.
Every numbered part comes from another study and shows a few of its results, in no order. Positions count from the first letter of the parent shown.

Block 1
Target: Fragile X messenger ribonucleoprotein 1, C-terminal low-complexity region (Fmr1, Mus musculus, UniProt P35922)
Technique: RNA Bind-n-Seq
Form: RNA
Medium: in vitro
Tested at: 200 nM
Setting: whole 134-nt RNA, ends assumed
With: 150 mM KCl
Relative to: input library
Direction: higher = stronger binding
Shared flanks, not repeated: GGGAGUUCUACAGUCCGACGAUC … UGGAAUUCUCGGGUGUCAAGG
Strand | log2 enrichment
CCUGUGCUACACAUCGUAUGUACCGAAUCGGGGUUUUUUUGGGGAAAGGGGAAAAAGGGGAAAGUAUUAUGUUACGCCGUUCGGAUCUGC | 0.33
UCCUCAAGUCCUGUGCUACACAUCGUAUGUACCGAAUCGGGCGGCGGGCGGAAAGUAUUAUGUUACGCCGUUCGGAUCUGCACUUCCAGC | -0.407
UCCUGUGCUACACAUCGUAUGUACCGAAUCGGGGAAAAAGGGGAAAAAGGGAAAAAGGGAAAGUAUUAUGUUACGCCGUUCGGAUCUGCA | 0.0494
AACUAAUACUCUUAAAUGGUCUUUCAGUAUAGUGGUUCUUACGUAGUUUAACAUAGCUAUAAAUUGAGUUUAACAAUUUAUAAACUCAAG | -0.5
UAACUUUAGAGGAGGAUCUGAUGGAUAUGGCAGUGGACGUGGAUUUGGGGAUGGCUAUAAUUGGUAUGGAGGAGGACCUGGAGGUGGCAA | 0.168
UCAAGUCCUGUGCUACACAUCGUAUGUACCGAAUCGGUUUGGGGUUUGGUUUGGAAAGUAUUAUGUUACGCCGUUCGGAUCUGCACUUCC | -0.176
UGGCCCUGGUGGCAUGCGGGGAGGAAGAGGUGGCCUCAUGGAUCGUGGUGGUCCCCGUGGAAUGUUCAGAGGUGGCCGUGGUGGAGACAG | -0.25
UCAAGUCCUGUGCUACACAUCGUAUGUACCGAAUCGGGGUGGGGAGGGGUGGGGAAAGUAUUAUGUUACGCCGUUCGGAUCUGCACUUCC | 1.36
CUGUGCUACACAUCGUAUGUACCGAAUCGGGAAAAAAAGGGGAAAAAAAGGGAAAAAAAGGAAAGUAUUAUGUUACGCCGUUCGGAUCUG | -0.912

Block 2
Target: Protein max, full length (MAX, Homo sapiens, UniProt P61244-2, residues 1-151)
Technique: protein-binding microarray
Form: double-stranded DNA, one strand shown
Medium: in vitro
Tested at: not given
Setting: k-mer, scored over probes, only values ≥0.25
Direction: higher = stronger binding
Strand | E-score
CGTGGGGC | 0.355
CATGTTCA | 0.34
CCACACGC | 0.366
ACGACCAC | 0.286
ACATGTGC | 0.487
ACACGCAC | 0.356
CCATGCCC | 0.325
ATGTGGCA | 0.272
CCCACACC | 0.281
CGCCGCAC | 0.306
CGCTCCAC | 0.26
GTGGCTTA | 0.298
GCGTGAGC | 0.376
ACGCGTGC | 0.446
ATGTGCGC | 0.397

Block 3
Target: ABI1, truncated, D143A, DHFR fusion (Arabidopsis thaliana)
Technique: DHFR PCA, deep sequencing
Medium: yeast
Setting: methotrexate growth selection, single substitutions
With: (+)-ABA 4.8 µM
Relative to: wild-type fitted maximum
Direction: higher = stronger binding
Starting sequence: PYL1, truncated, DHFR fusion (Arabidopsis thaliana); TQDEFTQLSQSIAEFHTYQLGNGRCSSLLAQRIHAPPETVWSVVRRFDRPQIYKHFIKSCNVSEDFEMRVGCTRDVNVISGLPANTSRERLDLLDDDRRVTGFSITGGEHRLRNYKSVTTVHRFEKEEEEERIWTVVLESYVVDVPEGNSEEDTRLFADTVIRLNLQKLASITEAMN; partner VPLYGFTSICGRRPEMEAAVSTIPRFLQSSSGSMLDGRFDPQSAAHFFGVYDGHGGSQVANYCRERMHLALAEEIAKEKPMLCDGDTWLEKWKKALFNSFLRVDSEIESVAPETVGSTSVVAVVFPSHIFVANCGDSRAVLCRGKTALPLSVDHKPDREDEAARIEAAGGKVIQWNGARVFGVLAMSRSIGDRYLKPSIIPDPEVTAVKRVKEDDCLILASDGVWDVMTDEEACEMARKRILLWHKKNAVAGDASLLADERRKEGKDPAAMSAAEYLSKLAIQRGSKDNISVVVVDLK
Change | relative binding score
N22V | 77.9%
T119L | 51.5%
S87V | 34.3%
W41R | 21.7%
Q7W | 80.3%
V44Y | -9.61%
N85S | 85.1%
V70A | 53.6%
E129Y | 64.4%
V62N | -14.6%
E147D | 74.2%
D48S | 2.57%

Block 4
Target: CCNF, cyclin fold, Cln2 fusion (human)
Technique: yeast growth competition, sequencing
Medium: yeast
Setting: strong parent motif
Relative to: not given
Direction: higher = stronger binding
Starting sequence: RB1 docking peptide (human); PKPLKKLRFDIEG
Change | normalised enrichment score
I11T | -0.215
L7S | 1.11
P3V | 1.56
R8F | 2.39
P1E | 0.73
L4D | 1.92
P3I | 1.39
L4K | 4.12
P1A | 0.807
D10R | 2.96
G13N | 1.15
E12L | 1.88
R8W | 1.37
E12I | 2.63
D10H | 1.52
G13A | 2.14
F9T | 0.334
K5W | 1.59
P1Y | 1.95
F9M | 0.724
P1F | 1.05
R8I | 2.58
K2S | 0.724
I11R | 0.00129
K5N | 1.14

Block 5
Target: Interferon regulatory factor 7, full length, phosphomimetic (IRF7, Homo sapiens, UniProt Q92985, residues 1-503, S101K/S471D/S472D/S475D/S476D/S477D/S483D/S484D/S487D)
Sequence of UniProt Q92985 (whole entry, unmodified, looked up): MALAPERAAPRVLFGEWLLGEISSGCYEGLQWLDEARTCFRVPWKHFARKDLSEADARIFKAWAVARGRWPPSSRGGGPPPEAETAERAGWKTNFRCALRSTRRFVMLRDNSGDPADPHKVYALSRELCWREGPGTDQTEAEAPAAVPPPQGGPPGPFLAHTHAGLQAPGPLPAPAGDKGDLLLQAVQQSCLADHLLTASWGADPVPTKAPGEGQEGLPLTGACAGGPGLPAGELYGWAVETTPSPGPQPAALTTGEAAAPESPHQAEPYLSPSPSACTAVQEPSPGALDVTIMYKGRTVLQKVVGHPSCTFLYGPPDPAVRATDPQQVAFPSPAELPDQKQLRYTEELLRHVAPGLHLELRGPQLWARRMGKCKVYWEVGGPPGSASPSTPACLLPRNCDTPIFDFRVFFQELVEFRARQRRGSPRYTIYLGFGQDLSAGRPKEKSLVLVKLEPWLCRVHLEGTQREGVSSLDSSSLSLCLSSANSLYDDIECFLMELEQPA
Technique: protein-binding microarray
Form: double-stranded DNA, one strand shown
Medium: in vitro
Tested at: 250 nM
Setting: 60-bp whole probe
With: salmon DNA 0.4 mg/ml
Relative to: random background probes
Direction: higher = stronger binding
Shared flanks, not repeated: GCCTAGCAC … GTCTTGATTCGCTTGACGCTGCTG
Strand | log fluorescence
GACGAACTGGGGTATCGAGGCGTGCTA | -0.63 z-score
TCATTTTCCTCTGTCATACTGTGCTAG | 2.79 z-score
TCATCTCCAGGGTTTCTCACTGTGCTA | 0.153 z-score
GGCGGTATCGGTATCGGGACGTGCTAG | 1.06 z-score
GACGGTAACGGGACTGGGGACGTGCTA | -0.715 z-score
GACGGTTTCGACAGTGGGGACGTGCTA | 2.23 z-score
TTAGATATCAGTTTCAATTAGTGCTAG | 1.14 z-score
GGTCCTTTCTGCCTCAGAGGGTGCTAG | 0.752 z-score
GACGGATTGGGGACTGGGGACGTGCTA | -0.239 z-score
TAAGGTTCCCTTTTCCTTTAGTGCTAG | 4.33 z-score
GACGGTTTCGGTTCCAGGACGTGCTAG | 12.4 z-score
GACGGAGTGGGGACTGGGGACGTGCTA | -0.479 z-score
TCACCTCTCATTCCAATACTGTGCTAG | 0.549 z-score
ATGGAAATCTCAATGGGTTAGTGCTAG | -0.622 z-score
TCATGCTTTCTTTTTGCACTGTGCTAG | 1.05 z-score
GACGGTATCGACTATAGGGACGTGCTA | -0.262 z-score
TCAGCTTCCTCTTTCTCACTGTGCTAG | 0.608 z-score
TCACCTTTTCACTTTACACTGTGCTAG | 2.13 z-score
GACGGACCGGGACTGGGGACGTGCTAG | -0.265 z-score

For quick reference, copied from above (block 4):
Change | normalised enrichment score
I11T | -0.215
L7S | 1.11
P3V | 1.56
R8F | 2.39
P1E | 0.73
L4D | 1.92
P3I | 1.39
